Results pooled from the literature.
Every numbered part comes from another study and shows a few of its results, in no order. “And” joins repeats or separate records; there may be more than shown.
Sequence of UniProt Q9BZL6 (whole entry, looked up): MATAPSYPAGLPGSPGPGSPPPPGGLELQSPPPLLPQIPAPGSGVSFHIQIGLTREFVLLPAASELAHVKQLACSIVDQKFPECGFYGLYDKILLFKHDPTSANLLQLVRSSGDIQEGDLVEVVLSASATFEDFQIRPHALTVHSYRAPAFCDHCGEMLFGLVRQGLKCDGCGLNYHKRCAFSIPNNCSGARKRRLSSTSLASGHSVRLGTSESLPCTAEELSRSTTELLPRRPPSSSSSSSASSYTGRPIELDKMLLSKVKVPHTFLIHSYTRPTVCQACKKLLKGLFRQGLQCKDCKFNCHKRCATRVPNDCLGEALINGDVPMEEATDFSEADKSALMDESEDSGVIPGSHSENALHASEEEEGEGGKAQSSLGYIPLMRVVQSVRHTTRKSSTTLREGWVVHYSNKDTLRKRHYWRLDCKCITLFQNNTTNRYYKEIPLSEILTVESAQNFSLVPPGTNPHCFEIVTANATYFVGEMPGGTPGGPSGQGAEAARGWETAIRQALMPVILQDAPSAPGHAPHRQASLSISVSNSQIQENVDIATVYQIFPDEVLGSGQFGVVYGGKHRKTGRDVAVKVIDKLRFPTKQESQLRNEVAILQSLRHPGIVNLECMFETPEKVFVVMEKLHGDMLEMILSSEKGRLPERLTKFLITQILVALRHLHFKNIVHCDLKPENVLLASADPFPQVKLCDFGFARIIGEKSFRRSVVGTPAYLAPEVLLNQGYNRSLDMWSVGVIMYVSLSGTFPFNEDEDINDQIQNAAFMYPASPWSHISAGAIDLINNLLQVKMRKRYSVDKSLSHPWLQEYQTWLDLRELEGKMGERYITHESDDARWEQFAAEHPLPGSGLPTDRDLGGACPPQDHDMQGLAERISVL
Sequence of UniProt Q9HCP0 (whole entry, looked up): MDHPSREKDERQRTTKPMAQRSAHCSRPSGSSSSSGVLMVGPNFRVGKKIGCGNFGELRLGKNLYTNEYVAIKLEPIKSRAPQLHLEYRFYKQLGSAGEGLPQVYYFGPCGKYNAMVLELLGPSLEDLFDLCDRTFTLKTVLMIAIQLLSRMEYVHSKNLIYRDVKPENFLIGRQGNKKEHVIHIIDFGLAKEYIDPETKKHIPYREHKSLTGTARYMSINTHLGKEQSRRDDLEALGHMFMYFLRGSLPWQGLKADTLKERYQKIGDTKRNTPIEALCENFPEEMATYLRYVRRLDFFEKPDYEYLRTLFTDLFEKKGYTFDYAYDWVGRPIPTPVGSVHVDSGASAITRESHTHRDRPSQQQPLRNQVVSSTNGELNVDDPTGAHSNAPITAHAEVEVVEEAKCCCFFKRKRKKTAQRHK
Sequence of UniProt P45983 (whole entry, looked up): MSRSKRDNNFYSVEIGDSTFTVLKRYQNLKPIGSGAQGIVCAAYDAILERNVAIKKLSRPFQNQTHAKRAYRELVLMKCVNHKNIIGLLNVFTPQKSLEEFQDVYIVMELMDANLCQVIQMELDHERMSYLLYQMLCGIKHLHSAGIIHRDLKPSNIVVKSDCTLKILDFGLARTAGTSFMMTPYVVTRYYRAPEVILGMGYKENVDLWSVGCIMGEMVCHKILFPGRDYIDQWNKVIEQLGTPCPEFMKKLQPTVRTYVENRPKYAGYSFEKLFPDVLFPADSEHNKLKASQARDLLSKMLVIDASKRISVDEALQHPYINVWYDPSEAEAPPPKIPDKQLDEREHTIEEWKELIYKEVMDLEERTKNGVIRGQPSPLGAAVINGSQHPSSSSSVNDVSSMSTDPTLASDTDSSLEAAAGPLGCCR
Sequence of UniProt Q15303 (whole entry, looked up): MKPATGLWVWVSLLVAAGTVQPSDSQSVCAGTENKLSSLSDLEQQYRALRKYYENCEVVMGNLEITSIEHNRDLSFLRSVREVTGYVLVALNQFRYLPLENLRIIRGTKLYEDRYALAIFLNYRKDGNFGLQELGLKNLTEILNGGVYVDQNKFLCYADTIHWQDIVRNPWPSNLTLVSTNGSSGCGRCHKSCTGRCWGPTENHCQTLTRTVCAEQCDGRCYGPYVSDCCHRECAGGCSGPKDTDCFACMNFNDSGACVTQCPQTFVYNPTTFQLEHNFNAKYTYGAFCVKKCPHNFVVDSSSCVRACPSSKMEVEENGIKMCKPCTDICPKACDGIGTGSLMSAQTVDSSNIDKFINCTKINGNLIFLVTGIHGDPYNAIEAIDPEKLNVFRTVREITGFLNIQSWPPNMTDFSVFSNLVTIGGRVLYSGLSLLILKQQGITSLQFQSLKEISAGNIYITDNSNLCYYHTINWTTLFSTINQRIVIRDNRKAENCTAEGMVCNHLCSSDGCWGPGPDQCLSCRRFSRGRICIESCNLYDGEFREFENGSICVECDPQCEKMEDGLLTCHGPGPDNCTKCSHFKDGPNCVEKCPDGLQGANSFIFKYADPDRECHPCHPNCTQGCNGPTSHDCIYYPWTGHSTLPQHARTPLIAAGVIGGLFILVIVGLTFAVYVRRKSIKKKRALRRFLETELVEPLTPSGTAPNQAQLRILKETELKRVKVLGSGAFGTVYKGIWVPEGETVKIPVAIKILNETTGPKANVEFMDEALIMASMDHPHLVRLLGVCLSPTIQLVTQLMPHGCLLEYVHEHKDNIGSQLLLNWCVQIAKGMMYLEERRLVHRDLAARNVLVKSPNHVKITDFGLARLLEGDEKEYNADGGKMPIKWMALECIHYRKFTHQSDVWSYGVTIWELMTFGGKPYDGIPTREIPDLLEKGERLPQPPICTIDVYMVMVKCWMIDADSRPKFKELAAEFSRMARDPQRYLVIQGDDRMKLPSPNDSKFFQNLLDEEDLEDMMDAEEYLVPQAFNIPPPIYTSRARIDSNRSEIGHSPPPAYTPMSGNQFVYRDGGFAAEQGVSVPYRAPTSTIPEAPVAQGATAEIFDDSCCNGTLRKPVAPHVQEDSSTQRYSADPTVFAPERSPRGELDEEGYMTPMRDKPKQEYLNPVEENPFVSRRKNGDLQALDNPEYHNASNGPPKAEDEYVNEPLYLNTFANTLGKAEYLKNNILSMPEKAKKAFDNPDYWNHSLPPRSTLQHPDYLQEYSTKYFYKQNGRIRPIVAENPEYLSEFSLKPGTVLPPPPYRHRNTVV
Sequence of UniProt P21709 (whole entry, looked up): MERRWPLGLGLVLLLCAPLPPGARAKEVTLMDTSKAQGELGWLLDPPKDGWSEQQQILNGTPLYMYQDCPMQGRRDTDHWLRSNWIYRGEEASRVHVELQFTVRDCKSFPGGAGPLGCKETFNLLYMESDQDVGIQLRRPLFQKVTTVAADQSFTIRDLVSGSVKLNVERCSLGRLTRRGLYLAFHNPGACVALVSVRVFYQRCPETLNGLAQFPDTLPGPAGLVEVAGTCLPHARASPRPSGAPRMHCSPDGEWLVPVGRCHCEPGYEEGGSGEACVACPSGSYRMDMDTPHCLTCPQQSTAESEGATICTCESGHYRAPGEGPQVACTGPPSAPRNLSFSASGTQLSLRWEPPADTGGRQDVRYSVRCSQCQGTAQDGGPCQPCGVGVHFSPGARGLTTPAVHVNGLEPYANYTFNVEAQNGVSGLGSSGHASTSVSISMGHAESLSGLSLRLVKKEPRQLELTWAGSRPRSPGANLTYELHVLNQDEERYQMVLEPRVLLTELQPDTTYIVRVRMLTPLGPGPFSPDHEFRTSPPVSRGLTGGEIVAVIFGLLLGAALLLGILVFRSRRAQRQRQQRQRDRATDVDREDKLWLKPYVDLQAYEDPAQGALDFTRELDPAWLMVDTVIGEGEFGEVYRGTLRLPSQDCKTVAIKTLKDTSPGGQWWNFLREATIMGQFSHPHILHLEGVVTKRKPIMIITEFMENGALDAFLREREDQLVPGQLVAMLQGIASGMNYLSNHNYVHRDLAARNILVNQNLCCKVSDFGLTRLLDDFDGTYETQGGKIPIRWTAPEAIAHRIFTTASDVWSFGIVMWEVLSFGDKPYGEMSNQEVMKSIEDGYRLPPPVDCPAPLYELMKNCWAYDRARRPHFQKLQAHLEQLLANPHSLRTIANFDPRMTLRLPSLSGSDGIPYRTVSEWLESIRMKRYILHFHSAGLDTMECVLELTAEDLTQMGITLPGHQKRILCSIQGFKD
Sequence of UniProt O43293 (whole entry, looked up): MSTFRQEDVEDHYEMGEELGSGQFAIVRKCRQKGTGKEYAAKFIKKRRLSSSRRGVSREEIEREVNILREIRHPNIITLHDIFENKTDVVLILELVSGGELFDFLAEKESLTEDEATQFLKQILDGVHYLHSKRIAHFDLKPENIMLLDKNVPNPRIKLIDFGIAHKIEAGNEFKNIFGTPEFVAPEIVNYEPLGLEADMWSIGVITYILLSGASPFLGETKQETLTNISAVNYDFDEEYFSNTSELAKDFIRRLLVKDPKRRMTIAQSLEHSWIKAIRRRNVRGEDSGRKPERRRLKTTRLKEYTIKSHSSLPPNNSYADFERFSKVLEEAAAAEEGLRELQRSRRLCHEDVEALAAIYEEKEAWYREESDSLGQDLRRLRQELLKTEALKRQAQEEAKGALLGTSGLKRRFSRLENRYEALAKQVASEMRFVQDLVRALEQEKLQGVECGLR

Study 1 — effect on: enzyme activity; mode: inhibitor; tested at: 0.5 µM; baseline: control
Structure (SMILES): N/C(=N\[N+](=O)[O-])N/N=C\c1ccc(-c2cccc([N+](=O)[O-])c2)o1
It gave 103% for remaining activity (Receptor tyrosine-protein kinase erbB-4 (ERBB4, Homo sapiens, UniProt Q15303)).
Casein kinase I isoform gamma-1 (CSNK1G1, Homo sapiens, UniProt Q9HCP0) — remaining activity: 96.4%.
For NUAK family SNF1-like kinase 2 (NUAK2, Homo sapiens, UniProt Q9H093): remaining activity read 95.2%.
For Mitogen-activated protein kinase 8 (MAPK8, Homo sapiens, UniProt P45983): remaining activity read 91.2%.
For Ephrin type-A receptor 8 (EPHA8, Homo sapiens, UniProt P29322): remaining activity read 102%.
It gave 94.6% for remaining activity (MAP kinase-activated protein kinase 5 (MAPKAPK5, Homo sapiens, UniProt Q8IW41)).
It gave 88.9% for remaining activity (Ephrin type-A receptor 1 (EPHA1, Homo sapiens, UniProt P21709)).
It gave 94.3% for remaining activity (Serine/threonine-protein kinase D2 (PRKD2, Homo sapiens, UniProt Q9BZL6)).
It gave 103% for remaining activity (Death-associated protein kinase 3 (DAPK3, Homo sapiens, UniProt O43293)).
The remaining activity was 99.4% (Mitogen-activated protein kinase kinase kinase 11 (MAP3K11, Homo sapiens, UniProt Q16584)).

Study 2 — effect on: RNA clamping; method: fluorescence polarization; tested at: concentration not given; added: FAM-labelled poly r(AG)8 RNA
Target: Eukaryotic initiation factor 4A-III (Homo sapiens, UniProt P38919)
Sequence of UniProt P38919 (whole entry, looked up): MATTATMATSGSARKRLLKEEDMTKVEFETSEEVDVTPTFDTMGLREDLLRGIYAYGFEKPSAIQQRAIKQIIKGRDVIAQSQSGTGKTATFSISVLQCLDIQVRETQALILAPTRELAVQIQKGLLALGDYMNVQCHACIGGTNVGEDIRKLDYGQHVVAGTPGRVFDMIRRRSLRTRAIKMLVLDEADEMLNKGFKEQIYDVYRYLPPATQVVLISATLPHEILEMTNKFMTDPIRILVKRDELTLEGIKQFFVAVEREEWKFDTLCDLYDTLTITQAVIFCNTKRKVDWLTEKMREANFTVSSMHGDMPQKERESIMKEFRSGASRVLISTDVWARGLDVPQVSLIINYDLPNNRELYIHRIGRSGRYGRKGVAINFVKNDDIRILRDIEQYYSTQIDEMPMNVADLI
COc1ccc([C@@]23Oc4cc(OC)cc(OC)c4[C@]2(O)c2nc(-c4ccc(O)cc4)[nH]c(=O)c2[C@H]3c2ccccc2)cc1 — result for “fluorescence polarization change”: 5.9 mP.
For COC(=O)[C@@H]1[C@@H](c2ccccc2)[C@]2(c3ccc(OC)cc3)Oc3cc(OC)cc(OC)c3[C@@]1(O)[C@@H]2O, “fluorescence polarization change” read -4.2 mP and 0.8 mP and -6.2 mP and -5.6 mP.
COc1ccc([C@@]23Oc4cc(OC)cc(OC)c4[C@]2(O)c2nc(C(C)C)[nH]c(=O)c2[C@H]3c2ccccc2)cc1: “fluorescence polarization change” 21.2 mP.
Under “fluorescence polarization change”, COc1ccc([C@@]23Oc4cc(OC)cc(OC)c4[C@]2(O)c2nc(-c4ccccc4Cl)[nH]c(=O)c2[C@H]3c2ccccc2)cc1 is recorded as 24.8 mP.
For COC(=O)[C@@H]1[C@@H](c2ccccc2)[C@]2(c3ccc(OC)cc3)Oc3cc(OC)cc(OC)c3[C@@]23OC(c2ccc(Cl)nc2)=N[C@@]13O, “fluorescence polarization change” read 9.7 mP.
COC(=O)[C@@H]1[C@@H](c2ccccc2)[C@@]2(c3ccc(Br)cc3)C(=O)[C@]1(O)c1c(OC)cc(OC)cc1N2C — result for “fluorescence polarization change”: -5.1 mP.
Under “fluorescence polarization change”, COC(=O)[C@H]1[C@@H](c2ccccc2)C2(c3ccc(OC)cc3)Oc3cc(OC)cc(OC)c3[C@@]1(O)C2=O is recorded as -5.8 mP.
COC(=O)[C@@H]1[C@@H](c2ccccc2)[C@@]2(c3ccc(OC)cc3)C(=O)[C@]1(O)c1ccccc1N2C: “fluorescence polarization change” 3.1 mP and -13.4 mP.

Study 3 — effect on: dsDNA unwinding; method: PicoGreen fluorescence; matrix: annealed dsDNA substrate; tested at: 20 µM
For CCOC(=O)Nc1ccc(NCc2ccc(F)cc2)nc1N, the effect was 1.37%.
COc1cc(C(=S)N2CCOCC2)ccc1O gave an effect of 3.2%.
For O=C(O)C(Cl)Cl, the effect was 1.72%.
For O=C(O)[C@@H](S)[C@@H](S)C(=O)O, the effect was 4.25%.
For N#CSc1cc(SC#N)c(N)nc1N, the effect was 4.09%.
The effect of CCC(=O)OCN1C(=O)C=CC1=O is reported as 5.5%.
C=CC(=O)c1ccc2ccccc2c1 has an effect of 10.2%.
COc1cc2c(cc1OC)-c1cc3ccc(OC)c(OC)c3c[n+]1CC2 has an effect of 3.1%.
CN(C)C(=S)SC(=S)N(C)C gave an effect of 7.92%.
For CC(=O)C(=Cc1cc(O)c(O)c([N+](=O)[O-])c1)C(C)=O, the effect was 12.2%.
The effect of O=c1sn(-c2cccc3ccccc23)c(=O)n1Cc1ccccc1 is reported as 9.27%.
The effect of CCN(CC)C(=S)S is reported as 10.1%.
O=S(=O)(O)c1ccc(-c2c3nc(c(-c4ccc(S(=O)(=O)O)cc4)c4ccc([nH]4)c(-c4ccc(S(=O)(=O)O)cc4)c4nc(c(-c5ccc(S(=O)(=O)O)cc5)c5ccc2[nH]5)C=C4)C=C3)cc1 gave an effect of -0.69%.
With CN=c1nc(-c2ccccc2)n(-c2ccccc2)s1 the effect was -2.4%.
CCN(CC)c1ccc(C(=C2C=CC(=[N+](CC)CC)C=C2)c2ccccc2)cc1 has an effect of 11.8%.
For O=c1c2ccccc2[se]n1-c1ccccc1, the effect was -2.05%.
The effect of O=[N+]([O-])C(Br)(CO)CO is reported as -5.09%.
With COC(=O)C1=C(C)NC(C)=C(C(=O)OC)C1c1ccccc1[N+](=O)[O-] the effect was 2.66%.
Nc1nnc(Sc2ncc([N+](=O)[O-])s2)s1 gave an effect of 16.8%.
For O=C1C(c2ccccn2)=[N+]([O-])c2ccccc21, the effect was 6.52%.
With O=C1C=Cc2cc(Br)ccc2C1=O the effect was 1.66%.
For Cc1ccc(S(=O)(=O)/C=C/C#N)cc1, the effect was 4.89%.
O=C(Nc1cccnc1)N1CCC(Cc2cccc(Oc3ccc(C(F)(F)F)cn3)c2)CC1 has an effect of 5.67%.
Cc1ccc(C(=O)Nc2ccc(S(=O)(=O)O)c3cc(S(=O)(=O)O)cc(S(=O)(=O)O)c23)cc1NC(=O)c1cccc(NC(=O)Nc2cccc(C(=O)Nc3cc(C(=O)Nc4ccc(S(=O)(=O)O)c5cc(S(=O)(=O)O)cc(S(=O)(=O)O)c45)ccc3C)c2)c1 gave an effect of 37.9%.
With COCCCOc1ccnc(C[S+]([O-])c2nc3ccccc3[nH]2)c1C (stereo not shown) the effect was 4.41%.

Study 4 — cell line: mouse MPNST tumor cells; method: high-content immunofluorescence imaging; measured: nuclear SOX9; tested at: 10 µM; time: 12 h; notes: mean of 2 replicates; baseline: DMSO control; direction: higher = more nuclear SOX9
For c1ccc([C@@H]2C[C@H]2NC2CCNCC2)cc1, “nuclear SOX9 intensity” read 104 % of DMSO and 96.6 % of DMSO.
For CCCN(CCC)CCc1ccc(OC)c(OCCc2ccccc2)c1, “nuclear SOX9 intensity” read 148 % of DMSO.
Under “nuclear SOX9 intensity”, CC(C)CC(N(C)C)C1(c2ccc(Cl)cc2)CCC1 (stereo not shown) is recorded as 106 % of DMSO.
Under “nuclear SOX9 intensity”, C=C(C)C1CCC(C)=CC1c1c(OC)cc(C)cc1OC (stereo not shown) is recorded as 103 % of DMSO.
For CC[C@@]1(O)C(=O)OCc2c1cc1n(c2=O)Cc2cc3ccccc3nc2-1, “nuclear SOX9 intensity” read 192 % of DMSO.
O=C(NCNC(=O)NC1C(=O)NC(=O)N1CO)NC1C(=O)NC(=O)N1CO (stereo not shown) — result for “nuclear SOX9 intensity”: 99.3 % of DMSO.
O=[N+]([O-])O[C@@H]1CO[C@H]2[C@@H]1OC[C@@H]2O: “nuclear SOX9 intensity” 95.5 % of DMSO.
Cc1cc(C(=O)CN2CCCC2)c(C)n1-c1ccc(F)cc1: “nuclear SOX9 intensity” 107 % of DMSO.
CC(CCc1ccccc1)NC(C)C(O)c1ccc(O)cc1 (stereo not shown) — result for “nuclear SOX9 intensity”: 145 % of DMSO.
Under “nuclear SOX9 intensity”, O=c1cccc2n1CC1CC2CN(CCN2CC3CC(C2)c2cccc(=O)n2C3)C1 is recorded as 85.8 % of DMSO.
Cc1cccc(C(C)c2c[nH]cn2)c1C (stereo not shown) — result for “nuclear SOX9 intensity”: 100 % of DMSO.

Further values, each from its own experiment
Tspo: Translocator protein (Tspo, Rattus norvegicus, UniProt P16257)
Sequence of UniProt P16257 (whole entry, looked up): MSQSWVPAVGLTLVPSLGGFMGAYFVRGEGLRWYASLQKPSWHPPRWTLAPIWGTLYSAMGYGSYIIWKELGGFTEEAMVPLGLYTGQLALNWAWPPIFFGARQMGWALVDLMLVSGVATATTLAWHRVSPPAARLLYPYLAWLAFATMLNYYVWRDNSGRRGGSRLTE
Cn1cncc1[C@@](O)(COc1ccc(C#N)cc1-c1ccc(OC(F)(F)F)cc1)c1ccc(C#N)cc1 has an inhibition of 9.56% (Tspo; radioligand binding, radioligand displacement; 10 µM).
With O=C(Nc1cccnn1)N1CCC(=Cc2cccc(Oc3ccc(C(F)(F)F)cn3)c2)CC1 the remaining binding was 100% (Cyclin-dependent kinase 2 homolog (CRK2, Plasmodium falciparum, UniProt P61075); cell-free assay, competition with immobilised ligand; 1 µM).
For N#CC1(c2ccccn2)CCN(Cc2cc(C(=O)O)c(=O)n3ccccc23)CC1, the inhibition was 7.88% (Tspo; radioligand binding, radioligand displacement; 10 µM).
For Cc1nccc(COC(=O)N2C[C@@H]3[C@@H](CNC(=O)c4ccc5[nH]nnc5c4)[C@@H]3C2)n1, the inhibition was 7.65% (5-hydroxytryptamine receptor 2A (HTR2A, Homo sapiens, UniProt P28223); binding, radioligand binding; 10 µM).

For quick reference, copied from above (study 1):
It gave 103% for remaining activity (Receptor tyrosine-protein kinase erbB-4 (ERBB4, Homo sapiens, UniProt Q15303)).
Casein kinase I isoform gamma-1 (CSNK1G1, Homo sapiens, UniProt Q9HCP0) — remaining activity: 96.4%.
For NUAK family SNF1-like kinase 2 (NUAK2, Homo sapiens, UniProt Q9H093): remaining activity read 95.2%.
For Mitogen-activated protein kinase 8 (MAPK8, Homo sapiens, UniProt P45983): remaining activity read 91.2%.
For Ephrin type-A receptor 8 (EPHA8, Homo sapiens, UniProt P29322): remaining activity read 102%.
It gave 94.6% for remaining activity (MAP kinase-activated protein kinase 5 (MAPKAPK5, Homo sapiens, UniProt Q8IW41)).
It gave 88.9% for remaining activity (Ephrin type-A receptor 1 (EPHA1, Homo sapiens, UniProt P21709)).
